Published values from different studies.
A part holds a random share of what one study measured.

Block 1
Target: Serine/threonine-protein kinase pim-3 (PIM3, Homo sapiens, UniProt Q86V86)
Observed: enzyme activity
Action: inhibitor
Concentration: 0.5 µM
Relative to: control
For N#Cc1c(NC(=O)c2cccc3ccccc23)sc2c1CCCC2, the remaining activity was 95.3%.
O=C(Nc1cccc(Nc2nccc(Nc3cccc(C(F)(F)F)c3)n2)c1)C1CC1 gave a remaining activity of 106%.
For c1ccc(-c2cnc(Nc3ccc(OCCN4CCCC4)cc3)s2)cc1, the remaining activity was 120%.
COc1cc2c(cc1OC)-c1[nH]nc(Nc3cccc(F)c3)c1C2 gave a remaining activity of 95.3%.
Cc1cc2ncc(-c3ccccc3)nc2cc1C gave a remaining activity of 102%.
c1ccc(-c2[nH]ncc2-c2ccnc3ccccc23)nc1 gave a remaining activity of 90.6%.
C[C@@H]1CCN(C(=O)CC#N)C[C@@H]1N(C)c1ncnc2[nH]ccc12 gave a remaining activity of 96.5%.
CCN(CC)CCNC(=O)c1c(C)[nH]c(/C=C2\C(=O)Nc3ccc(F)cc32)c1C gave a remaining activity of 56.8%.
CCN(CC)C(=O)c1ccc(Nc2nc(OCC3CCCCC3)c3[nH]cnc3n2)cc1 gave a remaining activity of 109%.
O=c1cc(-c2cccc3c2Sc2ccccc2S3)oc(N2CCOCC2)c1 gave a remaining activity of 52.3%.
The remaining activity of CCN(CC)CCNC(=O)c1c(C)[nH]c(/C=C2\C(=O)Nc3ccc(Cl)cc32)c1C is reported as 74%.
With N#C/C(=C\c1ccc(O)c(O)c1)C(=O)NCc1ccccc1 the remaining activity was 95.8%.
Cn1nc2c3c(cccc31)C(=O)c1ccccc1-2 has a remaining activity of 76.8%.
Cc1cn(-c2cc(NC(=O)c3ccc(C)c(Nc4nccc(-c5cccnc5)n4)c3)cc(C(F)(F)F)c2)cn1 gave a remaining activity of 97.8%.
O=C1c2ccccc2-c2n[nH]c3cccc1c23 has a remaining activity of 55.3%.
With CN([C@@H](Cc1ccc(OS(=O)(=O)c2cccc3cnccc23)cc1)C(=O)N1CCN(c2ccccc2)CC1)S(=O)(=O)c1cccc2cnccc12 the remaining activity was 113%.
COc1cc2ncnc(Nc3cccc(Cl)c3)c2cc1OC has a remaining activity of 99.4%.
With COc1cc2ncnc(Nc3ccc(O)c(Br)c3)c2cc1OC the remaining activity was 73.3%.
With Cc1nc2cc3nc(-c4cccs4)cnc3cc2n1C the remaining activity was 91.2%.
The remaining activity of O=C(NC(NC(=S)Nc1ccc(F)c([N+](=O)[O-])c1)C(Cl)(Cl)Cl)C(c1ccccc1)c1ccccc1 (centres unmarked) is reported as 120%.
For O=C1C(Cl)=C(N2C(=O)CCC2=O)C(=O)c2ccccc21, the remaining activity was 101%.
CCOc1nc(NC(=O)Cc2cc(OC)ccc2OC)cc(N)c1C#N gave a remaining activity of 95.2%.
Nc1cccc(-c2cc3c(Oc4cccc(O)c4)ncnc3[nH]2)c1 has a remaining activity of 129%.
The remaining activity of Ic1cccc(CSc2nnc(-c3ccncc3)o2)c1 is reported as 106%.
With CN(C)C[C@H]1CCn2c(c(C3=C(c4cn(C)c5ccccc45)C(=O)NC3=O)c3ccccc32)C1 the remaining activity was 83.1%.

Block 2
Target: D(1A) dopamine receptor (DRD1, Homo sapiens, UniProt P21728)
Chain of UniProt P21728 (whole entry, looked up): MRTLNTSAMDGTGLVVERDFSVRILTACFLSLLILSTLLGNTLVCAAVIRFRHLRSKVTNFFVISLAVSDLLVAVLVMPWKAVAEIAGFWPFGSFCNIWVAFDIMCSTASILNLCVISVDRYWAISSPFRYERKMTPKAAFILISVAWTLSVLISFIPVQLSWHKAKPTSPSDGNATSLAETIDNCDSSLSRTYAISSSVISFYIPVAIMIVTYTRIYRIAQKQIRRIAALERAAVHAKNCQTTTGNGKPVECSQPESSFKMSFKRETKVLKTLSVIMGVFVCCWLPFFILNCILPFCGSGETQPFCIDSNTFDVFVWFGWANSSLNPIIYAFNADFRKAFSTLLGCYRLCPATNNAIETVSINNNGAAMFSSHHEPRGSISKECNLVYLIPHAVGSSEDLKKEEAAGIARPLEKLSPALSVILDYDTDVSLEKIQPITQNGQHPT
Observed: ligand displacement
Concentration: 10 µM
For CN([C@@H]1CCc2c(CC(=O)O)c3ccccc3n2C1)S(=O)(=O)c1ccc(F)cc1, the inhibition was 12.3%.
For O=c1nc(-c2ccccn2)sc2ccccc12, the inhibition was 3.24%.
For Nc1cnc(N2CCc3cc(S(=O)(=O)Nc4c(F)cc(Cl)cc4F)cc(N4CCCC4=O)c32)nc1, the inhibition was -8.35%.
For Cc1ncc(-c2cc(Cl)ccc2F)cc1-n1c(=O)n(CC(N)=O)c2ccccc21, the inhibition was -2.08%.
CN1CCN(c2cnc3c(C4CCN(C(=O)c5ccc(OC(F)(F)F)cc5N)CC4)ncnc3c2)CC1 gave an inhibition of -16.5%.
The inhibition of COc1cccc(NC(=O)c2nc3scc(CN(C)Cc4ccccc4)c3c(=O)[nH]2)c1 is reported as -11.2%.
For CC[C@H](CC(=O)O)n1c(=O)c2ncccc2n(Cc2cn(C)c3cc(C)cc(C)c23)c1=O, the inhibition was 20.3%.
With N#CC1(c2ccccn2)CCN(Cc2cc(C(=O)N3CCCC3)c(=O)n3ccccc23)CC1 the inhibition was -15.1%.
The inhibition of CN1CCN(c2ccnc(NCCc3ccccc3)n2)CC1 is reported as 26.5%.
For CCOc1ccc(S(=O)(=O)Nc2ccc(Cl)cc2C#Cc2cnc(C(=O)O)cc2OC)c2ncccc12, the inhibition was 8.58%.
With c1ccc(N2CCN(Cc3nc4ccccc4[nH]3)CC2)nc1 the inhibition was 3%.
With c1ccc(C2CCN(c3cnc4c(N5CCOCC5)nccn34)CC2)cc1 the inhibition was 10.6%.
For C[C@@H](c1cccc(C#N)c1)n1cc(Cl)cc(C(N)=O)c1=N, the inhibition was -6.15%.
For CC1=C(C#N)C(c2ccc3[nH]nc(C)c3c2)C(C#N)=C(C)N1, the inhibition was 6.92%.
The inhibition of C[C@H](c1ccc(F)cc1)N(Cc1cccc(C(=O)O)c1)C(=O)c1cnc2ccccc2c1 is reported as -0.79%.

Block 3
Target: Beta-1 adrenergic receptor (ADRB1, Homo sapiens, UniProt P08588)
Chain of UniProt P08588 (whole entry, looked up): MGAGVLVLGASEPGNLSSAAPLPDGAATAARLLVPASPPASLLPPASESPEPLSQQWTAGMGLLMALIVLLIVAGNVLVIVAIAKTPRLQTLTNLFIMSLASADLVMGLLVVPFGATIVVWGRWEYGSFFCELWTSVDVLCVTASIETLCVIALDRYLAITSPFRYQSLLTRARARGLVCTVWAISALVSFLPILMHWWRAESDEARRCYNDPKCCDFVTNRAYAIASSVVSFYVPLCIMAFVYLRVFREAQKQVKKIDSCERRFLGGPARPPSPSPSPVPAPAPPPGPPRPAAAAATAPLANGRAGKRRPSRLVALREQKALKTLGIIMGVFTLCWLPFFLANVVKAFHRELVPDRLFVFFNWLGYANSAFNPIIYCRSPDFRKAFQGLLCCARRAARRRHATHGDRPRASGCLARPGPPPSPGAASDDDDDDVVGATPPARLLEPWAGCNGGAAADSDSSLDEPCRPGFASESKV
Action: agonist
For Cc1ccsc1-c1n[nH]c2ncc(-c3cnn(C)c3C)nc12, the EC50 was no less than 100 µM.
With O=C(Nc1cccc(C(F)(F)F)c1)N[C@H]1CO[C@H]2[C@@H]1OC[C@@H]2Nc1nccc(C2CCCC2)n1 the EC50 was no less than 100 µM.
O=C(Nc1ccccc1C(=O)N1CCOCC1)c1ccc2ccccc2n1 has an EC50 of no less than 100 µM.
For OC(c1cccc(C(F)(F)F)c1)c1nc(Nc2ccc(N3CCOCC3)cc2)n[nH]1 (centres unmarked), the EC50 was no less than 100 µM.
Cc1ccc2c(Cn3nnc(-c4cccc(Cl)c4)n3)cc(=O)oc2c1 gave an EC50 of no less than 100 µM.
CCn1ccnc1CN(C)Cc1cccc(OCC(O)CN(C)C2CCCCC2)c1 (centres unmarked) gave an EC50 of no less than 100 µM.
For COCc1cc(CC2(NCc3ccc(N(C)C)cc3)COC2)no1, the EC50 was no less than 100 µM.
CC(O)CNCc1c(Cl)cccc1Cl (centres unmarked) gave an EC50 of no less than 100 µM.
CC(C)c1ccccc1Nc1nnc(-c2cc(-c3cccnc3)nc3ccccc23)s1 has an EC50 of no less than 100 µM.
Cc1oc(C(O)c2cccc(O)c2)nc1C(=O)NC1CCOCC1 (centres unmarked) gave an EC50 of no less than 100 µM.
The EC50 of COc1cc(F)ccc1-c1nc(N2CCOCC2)cc2c1CN(CC(F)(F)F)C2=O is reported as no less than 100 µM.
With CN(c1ccccc1)c1cc(=O)c2ccnc(NCC3CCOCC3)c2o1 the EC50 was no less than 100 µM.
With Cc1cc(F)ccc1-c1n[nH]c2ncc(-c3ccccc3)nc12 the EC50 was 39.8 µM.
CN(CC(O)COc1cccc(CNCCOc2ccccc2)c1)C1CCCCC1 (centres unmarked) gave an EC50 of no less than 100 µM.
For O=C(COc1ccccc1)Nc1ccc([C@@H](O)[C@H]2COCC(=O)N2CCCc2ccccc2)cc1, the EC50 was no less than 100 µM.

Block 4
Target: Synaptic vesicular amine transporter (SLC18A2, Homo sapiens, UniProt Q05940)
Chain of UniProt Q05940 (whole entry, looked up): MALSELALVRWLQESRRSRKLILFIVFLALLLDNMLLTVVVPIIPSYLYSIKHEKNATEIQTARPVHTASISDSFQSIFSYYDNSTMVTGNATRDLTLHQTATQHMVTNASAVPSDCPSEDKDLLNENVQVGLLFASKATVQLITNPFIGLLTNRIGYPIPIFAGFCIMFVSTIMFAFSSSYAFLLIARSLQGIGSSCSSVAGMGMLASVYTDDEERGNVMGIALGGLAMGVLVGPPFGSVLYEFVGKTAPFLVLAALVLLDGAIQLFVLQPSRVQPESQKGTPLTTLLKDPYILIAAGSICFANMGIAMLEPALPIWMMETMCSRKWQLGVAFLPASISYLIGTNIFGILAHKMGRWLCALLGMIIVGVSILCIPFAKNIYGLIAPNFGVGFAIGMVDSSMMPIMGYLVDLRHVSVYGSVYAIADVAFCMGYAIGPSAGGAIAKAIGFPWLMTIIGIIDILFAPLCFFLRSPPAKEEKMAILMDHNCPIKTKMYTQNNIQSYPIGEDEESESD
Observed: transporter uptake
Action: inhibitor
The IC50 of C[C@]12CC[C@H](O)CC1=CC[C@@H]1[C@@H]2CC[C@]2(C)C(c3cccnc3)=CC[C@@H]12 is reported as 4.97 µM.
With NC(=O)C(c1ccccc1)(c1ccccc1)[C@@H]1CCN(CCc2ccc3c(c2)CCO3)C1 the IC50 was 0.7 µM.
The IC50 of CN(C)CCC=C1c2ccccc2CCc2ccccc21 is reported as 9 µM.
For CSc1nc2cc(Cl)c(Oc3cccc(Cl)c3Cl)cc2[nH]1, the IC50 was 1.48 µM.
COc1cc(N)c(Cl)cc1C(=O)NC1CCN(CCCOc2ccc(F)cc2)CC1OC (centres unmarked) has an IC50 of 7.06 µM.
With N#Cc1ccc2[nH]cc(CCCCN3CCN(c4ccc5oc(C(N)=O)cc5c4)CC3)c2c1 the IC50 was 0.069 µM.
The IC50 of Cc1cc(Nc2ncc(Cl)c(Nc3ccccc3S(=O)(=O)C(C)C)n2)c(OC(C)C)cc1C1CCNCC1 is reported as 1 µM.
The IC50 of CN(C)CCCN1c2ccccc2CCc2ccc(Cl)cc21 is reported as 8.2 µM.
For CN1CC2c3ccccc3Oc3ccc(Cl)cc3C2C1 (centres unmarked), the IC50 was 4.32 µM.
With CC(C)(C)c1ccc(C(O)CCCN2CCC(C(O)(c3ccccc3)c3ccccc3)CC2)cc1 (centres unmarked) the IC50 was 2.02 µM.

For quick reference, copied from above (block 4):
The IC50 of CN(C)CCC=C1c2ccccc2CCc2ccccc21 is reported as 9 µM.
For CSc1nc2cc(Cl)c(Oc3cccc(Cl)c3Cl)cc2[nH]1, the IC50 was 1.48 µM.
COc1cc(N)c(Cl)cc1C(=O)NC1CCN(CCCOc2ccc(F)cc2)CC1OC (centres unmarked) has an IC50 of 7.06 µM.
With N#Cc1ccc2[nH]cc(CCCCN3CCN(c4ccc5oc(C(N)=O)cc5c4)CC3)c2c1 the IC50 was 0.069 µM.
The IC50 of Cc1cc(Nc2ncc(Cl)c(Nc3ccccc3S(=O)(=O)C(C)C)n2)c(OC(C)C)cc1C1CCNCC1 is reported as 1 µM.
